Results gathered from unrelated publications.
Numbered parts are unrelated; each lists some results of a single study.

Sample 1 — technique: protein binding microarray; molecule type: double-stranded DNA, one strand shown; sample: in vitro; tested at: not given; reference: not given; reading: higher = stronger binding
Target: Histone acetyltransferase KAT6A, winged helix 1, GST fusion (KAT6A, Homo sapiens, UniProt Q92794, residues 1-85)
Notes: 8-mer, flanks averaged, mean of 2 arrays, mostly near background
Residues (chain): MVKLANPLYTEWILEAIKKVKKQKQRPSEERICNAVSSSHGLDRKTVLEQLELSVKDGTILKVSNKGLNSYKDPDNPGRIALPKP
Sequence | E-score
ATATCCGG | 0.0691
CATGGAGA | -0.246
CAACCCAC | -0.156
AATCTTAT | -0.0636

Sample 2 — technique: aptamer microarray, sandwich; molecule type: DNA with 2'F-ANA; sample: in vitro; tested at: 200 nM; together with: Cy3 exosite-II aptamer, 400 nM; reading: higher = stronger binding
Target: Prothrombin, mature alpha-thrombin (F2, Homo sapiens, UniProt P00734)
Notes: whole 15-mer aptamer, many near background
Sequence | mean fluorescence intensity [a.u.]
GGTTGGTGTGGTTGG (2'F-ANA at 4 7 10 11 12 13) | 92.9
GGTTGGTGTGGTTGG (2'F-ANA at 3 5 6 7 9 10 12 13 15) | 58
GGTTGGTGTGGTTGG (2'F-ANA at 6 7 12 13) | 641
GGTTGGTGTGGTTGG (2'F-ANA at 4 6 7 8 9 13) | 185

Sample 3 — technique: universal PBM; molecule type: double-stranded DNA, one strand shown; sample: in vitro; tested at: 600 nM; reading: higher = stronger binding
Target: Sal-like protein 4, full length isoform A (SALL4, Homo sapiens, UniProt Q9UJQ4, residues 1-1053)
UniProt Q9UJQ4, sequence (whole entry, looked up): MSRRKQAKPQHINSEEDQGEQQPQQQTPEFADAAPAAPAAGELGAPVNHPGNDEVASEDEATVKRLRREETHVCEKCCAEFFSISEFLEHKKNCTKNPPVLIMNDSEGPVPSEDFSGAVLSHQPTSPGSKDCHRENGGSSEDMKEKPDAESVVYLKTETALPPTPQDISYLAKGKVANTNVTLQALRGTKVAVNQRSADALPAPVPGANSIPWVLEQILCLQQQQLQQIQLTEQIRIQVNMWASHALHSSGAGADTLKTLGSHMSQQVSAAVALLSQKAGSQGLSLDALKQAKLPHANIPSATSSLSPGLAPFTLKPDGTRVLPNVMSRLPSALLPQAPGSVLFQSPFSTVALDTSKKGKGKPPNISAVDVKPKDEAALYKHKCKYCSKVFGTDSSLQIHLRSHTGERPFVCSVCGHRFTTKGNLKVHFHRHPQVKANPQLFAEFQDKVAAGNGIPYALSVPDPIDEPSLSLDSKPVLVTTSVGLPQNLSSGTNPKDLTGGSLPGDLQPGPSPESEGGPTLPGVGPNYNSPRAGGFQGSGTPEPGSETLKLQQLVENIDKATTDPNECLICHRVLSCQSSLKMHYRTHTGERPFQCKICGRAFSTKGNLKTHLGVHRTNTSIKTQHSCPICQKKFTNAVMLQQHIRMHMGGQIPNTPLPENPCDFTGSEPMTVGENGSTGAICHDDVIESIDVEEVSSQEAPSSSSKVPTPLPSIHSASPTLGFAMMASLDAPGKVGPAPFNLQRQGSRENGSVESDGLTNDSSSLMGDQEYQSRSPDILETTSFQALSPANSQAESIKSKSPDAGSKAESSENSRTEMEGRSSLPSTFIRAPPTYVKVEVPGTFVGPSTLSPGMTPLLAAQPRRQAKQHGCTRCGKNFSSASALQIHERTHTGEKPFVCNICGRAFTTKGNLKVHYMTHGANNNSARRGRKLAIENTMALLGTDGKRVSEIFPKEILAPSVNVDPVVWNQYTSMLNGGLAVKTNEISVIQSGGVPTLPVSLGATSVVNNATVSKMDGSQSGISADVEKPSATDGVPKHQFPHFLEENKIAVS
Notes: 8-mer, flanks averaged, mean of replicates
Sequence | E-score
GTACTGGA | 0.0765
ATCAAGAG | 0.165
ACCCCACT | -0.158
AATGGCAG | 0.0396

Single results of other studies
Molecule | target | assay | system | conditions | how to read | endpoint | value
PhoQ, residues 284 288 289 292 302 303 NLMGRA | PhoP, residues 12 14 15 18 19 YHFSH (Escherichia coli, UniProt P23836) | Sort-seq, measured: YFP reporter | E. coli | PhoQ-PhoP variant library, together with: 10 µM Mg2+ | reference: high Mg2+ state, higher = stronger signaling | fold induction | 3.09

Excerpt of the above (sample 3):
Sequence | E-score
ACCCCACT | -0.158
